Results of several laboratories.
Each numbered part is a random draw from the data of one study; scales do not carry over between parts. Positions count from the first letter of the parent shown.

Sample 1
Target: CCNB2, cyclin fold, Cln2 fusion (human)
Method: yeast growth competition, sequencing
Matrix: yeast
Setting: weak parent motif
Reference: not given
Direction: higher = stronger binding
Starting sequence: CDKN1B docking peptide (human); PSACRNLFGPVDH; partner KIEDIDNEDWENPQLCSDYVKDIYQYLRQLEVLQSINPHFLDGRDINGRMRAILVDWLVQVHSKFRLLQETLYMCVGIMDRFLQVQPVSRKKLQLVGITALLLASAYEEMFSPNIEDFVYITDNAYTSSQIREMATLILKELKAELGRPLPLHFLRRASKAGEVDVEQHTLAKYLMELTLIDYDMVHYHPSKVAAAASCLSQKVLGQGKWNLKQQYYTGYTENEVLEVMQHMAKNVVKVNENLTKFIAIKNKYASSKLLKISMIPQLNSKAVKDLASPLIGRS
For `C4N`, “normalised enrichment score” read -0.142.
`P1L` — result for “normalised enrichment score”: -0.123.
Under “normalised enrichment score”, `A3G` is recorded as 0.108.
Under “normalised enrichment score”, `F8Q` is recorded as 0.0803.
`V11L` — result for “normalised enrichment score”: -0.0233.
`P10H`: “normalised enrichment score” 0.337.
For `F8V`, “normalised enrichment score” read -0.365.
For `N6E`, “normalised enrichment score” read -0.0363.
Under “normalised enrichment score”, `S2G` is recorded as -0.216.
`F8T` — result for “normalised enrichment score”: 0.0297.
For `S2E`, “normalised enrichment score” read -0.43.
`H13W` — result for “normalised enrichment score”: 0.334.
Under “normalised enrichment score”, `A3C` is recorded as -0.271.
Under “normalised enrichment score”, `V11C` is recorded as -0.327.
For `V11G`, “normalised enrichment score” read 0.222.
`P1C` — result for “normalised enrichment score”: -0.554.

Sample 2
Target: MAFK, bZIP domain (human)
Method: DHFR protein complementation
Matrix: yeast
Setting: single substitutions, most at no-binding floor
Reference: wild-type JUN-FOS pair
Direction: higher = stronger binding
Starting sequence: JUN, bZIP domain (human); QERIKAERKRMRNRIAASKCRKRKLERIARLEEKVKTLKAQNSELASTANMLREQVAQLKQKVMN; partner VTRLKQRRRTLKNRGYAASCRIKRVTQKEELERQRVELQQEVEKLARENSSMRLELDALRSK
With `A40N` the binding fitness was -1.43 natural log.
`A40P` gave a binding fitness of -1.53 natural log.
With `A49Y` the binding fitness was -1.38 natural log.
`Q41K` gave a binding fitness of -1.54 natural log.
`L38C` has a binding fitness of -1.54 natural log.
The binding fitness of `K36G` is reported as -1.48 natural log.
`R53V` has a binding fitness of -1.53 natural log.
The binding fitness of `A49S` is reported as -1.45 natural log.
The binding fitness of `S43W` is reported as -1.51 natural log.
`K39I` has a binding fitness of -1.37 natural log.

Sample 3
Target: Prothrombin, mature alpha-thrombin (F2, Homo sapiens, UniProt P00734)
Method: aptamer microarray, sandwich
Form: DNA with 2'F-ANA
Matrix: in vitro
Concentration: 200 nM
Setting: whole 15-mer aptamer, many near background
Together with: Cy3 exosite-II aptamer, 400 nM
Direction: higher = stronger binding
Sequence: GGTTGGTGTGGTTGG
For `2'F-ANA at 2 3 5 6 8 9 11 12 15`, “mean fluorescence intensity” read 154 a.u.
`2'F-ANA at 2 6 9 11 14 15` — result for “mean fluorescence intensity”: 97.9 a.u.
`2'F-ANA at 1 4 5 7 8 9 10 11 12 13 15` — result for “mean fluorescence intensity”: 49.2 a.u.
`2'F-ANA at 4 9 10 14 15` — result for “mean fluorescence intensity”: 72.5 a.u.
`2'F-ANA at 3 4 5 7 10 12 14` — result for “mean fluorescence intensity”: 77.1 a.u.
`2'F-ANA at 2 4 7 8 9 12 14`: “mean fluorescence intensity” 132 a.u.
Under “mean fluorescence intensity”, `2'F-ANA at 1 2 6 8 9 12 14 15` is recorded as 69.1 a.u.
`2'F-ANA at 3 9 14`: “mean fluorescence intensity” 678 a.u.
`2'F-ANA at 3 4 6 7 9 10 12 13 15`: “mean fluorescence intensity” 218 a.u.
`2'F-ANA at 1 2 4 7 8 9 11 12 15`: “mean fluorescence intensity” 226 a.u.

Single results of other studies
With `PhoQ, residues 284 288 289 292 302 303 GANMMA` the fold induction was 0.972 (PhoP, residues 12 14 15 18 19 TPLRH (Escherichia coli, UniProt P23836); Sort-seq, refers to: YFP reporter; E. coli; PhoQ-PhoP variant library, together with: 10 µM Mg2+; reference: high Mg2+ state, higher = stronger signaling).

A few entries again (sample 2):
With `A49Y` the binding fitness was -1.38 natural log.
The binding fitness of `A49S` is reported as -1.45 natural log.
The binding fitness of `S43W` is reported as -1.51 natural log.
`Q41K` gave a binding fitness of -1.54 natural log.
`A40P` gave a binding fitness of -1.53 natural log.
`R53V` has a binding fitness of -1.53 natural log.
